Measured values from different studies.
Each line is one published result; not all experiments were run side by side. ± marks the error that the study gave.
UniProt Q09161, sequence (whole entry, looked up): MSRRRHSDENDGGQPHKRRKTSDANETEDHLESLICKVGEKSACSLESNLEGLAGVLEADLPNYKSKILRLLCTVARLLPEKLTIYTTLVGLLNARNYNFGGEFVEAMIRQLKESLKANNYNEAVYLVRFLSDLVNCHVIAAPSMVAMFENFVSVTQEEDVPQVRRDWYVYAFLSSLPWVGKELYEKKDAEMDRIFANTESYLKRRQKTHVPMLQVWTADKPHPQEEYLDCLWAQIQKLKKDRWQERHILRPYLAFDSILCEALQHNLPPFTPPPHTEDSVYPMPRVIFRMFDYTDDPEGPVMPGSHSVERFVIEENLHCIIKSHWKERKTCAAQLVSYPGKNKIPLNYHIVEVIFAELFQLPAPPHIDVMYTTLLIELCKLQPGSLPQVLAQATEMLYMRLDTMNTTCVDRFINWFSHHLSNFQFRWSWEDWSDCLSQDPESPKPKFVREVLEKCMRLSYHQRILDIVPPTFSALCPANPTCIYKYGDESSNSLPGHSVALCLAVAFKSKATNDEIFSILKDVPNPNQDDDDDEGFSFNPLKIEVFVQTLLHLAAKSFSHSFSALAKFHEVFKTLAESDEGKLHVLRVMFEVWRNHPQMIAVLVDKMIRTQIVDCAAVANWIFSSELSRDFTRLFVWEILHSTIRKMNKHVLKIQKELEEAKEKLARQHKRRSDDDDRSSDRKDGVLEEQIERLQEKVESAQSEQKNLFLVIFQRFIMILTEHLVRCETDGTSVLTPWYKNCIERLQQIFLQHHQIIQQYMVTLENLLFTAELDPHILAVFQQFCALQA

SMILES = O=C(Nc1ccccc1)C1CCN(C(=O)Oc2cccnc2)CC1; assay = Bond-Lader VAS; system = healthy women; setting = oral, 100 mg; how to read = reference: pre-dose baseline, direction not given; measurement = change in alertness score; result = 15
SMILES = N#Cc1ccc(COc2cccc(C(=O)Nc3ccc4c(c3)B(O)OC4)c2)cc1; assay = PAMPA; system = pre-coated trilayer membrane; setting = 200 µM, 5 h, pH 7.4, acceptor plate, PBS; measurement = acceptor concentration; result = 0.35 ± 0.06 µM
SMILES = CCN1CCN(Cc2ccc(Nc3ncc(F)c(-c4cc(F)c5nc6n(c5c4)[C@H](C)CCC6)n3)nc2)CC1; system = advanced solid tumour patients; setting = dose not given, Phase Ia monotherapy; measurement = Proteinuria incidence, grade ≥3; result = 0%
SMILES = CC(=O)c1c(C)c2cnc(Nc3ccc(C4CCN(CCS(C)(=O)=O)CC4)cn3)nc2n(C2CCCC2)c1=O; system = human, dose-escalation trial, plasma; setting = oral, 25 mg twice daily, day 1, single dose; measurement = AUC(0-t); result = 449 ng·h/mL
SMILES = Nc1ncnc2c1ncn2[C@@H]1O[C@@H]2COP(=O)([S-])O[C@@H]3[C@H](O)[C@@H](COP([O-])(=S)O[C@H]2[C@H]1O)O[C@H]3n1cnc2c(N)ncnc21.[Na+].[Na+] (some centres unmarked); system = non-tumor-bearing mice, serum; setting = intravenous, 1 mg/kg, toxicity study; measurement = total protein; result = 53.1 ± 3.11 g/L
SMILES = CCCC1CCC(C2CCC(c3ccc(F)c(F)c3)CC2)CC1 (centres unmarked); system = human mother-newborn pairs, cord serum; measurement = mean serum concentration; result = 0.29 ng/mL
SMILES = C[C@]1(CO)Cc2ncn(-c3ccc(C#N)c(Cl)c3)c2C(=O)O1; system = human; setting = 3 mg multiple doses, fasted; measurement = subjects with drug-related urine abnormality; result = 11.1%
SMILES = C[C@@H](O)[C@@H](CO)NC(=O)[C@@H](CCCNC(=N)N)NC(=O)[C@@H]1CCCN1C(=O)[C@@H]1CSSC[C@H](NC(=O)[C@H](Cc2ccccc2)NC(=O)CN2CCN(CC(=O)O)CCN(CC(=O)O)CCN(CC(=O)O)CC2)C(=O)N[C@@H](Cc2ccc(O)cc2)C(=O)N[C@@H](Cc2ccccc2)C(=O)N[C@@H](CCC(N)=O)C(=O)N[C@@H](CC(N)=O)C(=O)N1 [gallium-68 labelled]; system = healthy Wistar rat, small intestine; setting = intravenous, 8 MBq, 120 min, individual animals; measurement = tissue uptake; result = 0.02 %ID/g
SMILES = COc1ncccc1-c1cnn2ccc(N3CCN(C(=O)OC(C)C)CC3)nc12; system = mouse, open field test, plasma; setting = oral, 30 mg/kg, 60 min; measurement = drug concentration; result = 12 µM
SMILES = COc1cc2c(Oc3ccc4[nH]c(C)cc4c3F)ccnc2cc1OCC1(N)CC1; system = paediatric recurrent refractory sarcoma; setting = 8 mg; measurement = grade 1 or 2 sinus bradycardia; result = 0%
SMILES = CO[C@H]1C[C@@H]2CC[C@@H](C)[C@@](O)(O2)C(=O)C(=O)N2CCCC[C@H]2C(=O)O[C@H]([C@H](C)C[C@@H]2CC[C@@H](OC(=O)NCCOCCOCCOCCOCCOCCOCCOCCOCCC(=O)N3CCc4cc(Cn5nc(-c6ccc7oc(N)nc7c6)c6c(N)ncnc65)ccc4C3)[C@H](OC)C2)C[C@@H](O)[C@H](C)/C=C(\C)[C@@H](O)[C@@H](OC)C(=O)[C@H](C)C[C@H](C)/C=C/C=C/C=C/1C; system = advanced solid tumour patients; setting = intravenous, dose not given, grade ≥3, all doses; measurement = incidence of TEAE; result = 68.4%
SMILES = CNC(=O)c1c(N(C)N=O)ncn1C; tested on = Salmonella typhimurium; assay = mutagenicity, Ames plate incorporation; system = TA1535; setting = 150 µg/plate, without S9, methanol; measurement = revertant colonies per plate; result = 18.7 ± 7
SMILES = C[C@H]1CN(c2n[nH]c3nc(N[C@H]4CC[C@H](NS(=O)(=O)CCC(F)(F)F)CC4)ncc23)CCO1; tested on = Nuclear cap-binding protein subunit 1 (Homo sapiens, UniProt Q09161); assay = Kinobeads competition, measured: NCBP1; setting = 0.8 µM, unit not given; how to read = reference: vehicle; measurement = remaining binding; result = 1.3
SMILES = CN1CC[C@@H](c2c(O)cc(O)c3c(=O)cc(-c4ccc(C(F)(F)F)cc4Cl)oc23)[C@@H]1CO; assay = measured: Sepsis; system = relapsed B-cell malignancies; setting = oral, 150 mg, grade 3-4, intermittent dosing; measurement = patients with adverse event; result = 0%
SMILES = COc1cc(Nc2ncc(F)c(Nc3ccc4c(n3)NC(=O)C(C)(C)O4)n2)cc(OC)c1OC; tested on = NMDA receptor agonist site; measurement = IC50; result = > 10 µM
SMILES = CCCCCCCCCCCCCCCC(=O)N[C@@H](CCC(=O)NCCCC[C@H](NC(=O)[C@H](CC(=O)O)NC(=O)[C@H](CO)NC(=O)[C@@H](NC(=O)[C@H](Cc1ccccc1)NC(=O)[C@@H](NC(=O)CNC(=O)[C@H](CCC(N)=O)NC(=O)[C@H](CO)NC(=O)[C@@H](N)Cc1c[nH]cn1)[C@@H](C)O)[C@@H](C)O)C(=O)N[C@@H](CO)C(=O)N[C@@H](CCC(=O)O)C(=O)N[C@@H](Cc1ccc(O)cc1)C(=O)N[C@@H](CC(C)C)C(=O)N[C@@H](CC(=O)O)C(=O)N[C@@H](CO)C(=O)N[C@@H](CCC(=O)O)C(=O)N[C@@H](CCCNC(=N)N)C(=O)N[C@@H](C)C(=O)N[C@@H](CCCNC(=N)N)C(=O)N[C@@H](CC(=O)O)C(=O)N[C@@H](Cc1ccccc1)C(=O)N[C@H](C(=O)N[C@@H](C)C(=O)N[C@@H](Cc1c[nH]c2ccccc12)C(=O)N[C@@H](CC(C)C)C(=O)N[C@@H](CCC(=O)O)C(=O)N[C@@H](C)C(=O)NCC(=O)NCC(=O)O)C(C)C)C(=O)O; system = human, CrCl ≥ 90 mL/min; setting = sc, 100 µg single dose; measurement = abdominal distension; result = 12.5%
SMILES = CCc1ccc(CC/C=C/c2ccc3c(c2)C(=O)CC3)cc1; system = Sprague-Dawley rat, female; setting = oral, 450 mg/kg/day, 14 days; measurement = MCHC; result = 327 g/L
SMILES = CCS(=O)(=O)Nc1ccc(Oc2ccc(F)cc2F)c(-c2cn(C)c(=O)c3[nH]ccc23)c1; assay = fatal Staphylococcal bacteremia; system = human, relapsed/refractory AML; setting = oral, dose not given; measurement = treatment-emergent adverse events; result = 5%
SMILES = CCN1[C@@H](C(=O)NC23CCC(C(=O)O)(CC2)CC3)[C@H](c2cccc(Cl)c2F)[C@]2(C(=O)Nc3cc(Cl)ccc32)C12CCCCC2; system = patients with advanced solid tumours; setting = oral, 200 mg; measurement = Leukopenia incidence; result = 50%
SMILES = CC(C)(c1ccccc1)c1cc(-n2nc3ccccc3n2)c(O)c(C(C)(C)c2ccccc2)c1; system = human aged 11-16 years; setting = concentration not given, spray sunscreen, mean; measurement = daily dermal exposure dose; result = 8.26 ng/kg/day
SMILES = C[C@]1(O)C[C@@](N)(c2ccc(-c3nc4n(c3-c3ccccc3)COc3ccncc3-4)cc2)C1; system = human, advanced or metastatic solid tumours; setting = 20 mg once daily, phase I dose escalation; measurement = patients with Rash TEAE; result = 66.7%
SMILES = CC[C@H](C)[C@@H]1NC(=O)[C@@H]2CCCN2C(=O)[C@H](CC(C)C)NC(=O)[C@H](CC(C)C)NC(=O)CNC(=O)[C@@H](NC(=O)[C@@H](NC(=O)[C@H](CC(=O)O)NC(=O)CNC(=O)[C@@H](NC(=O)[C@H](C)NC(=O)CNC(=O)[C@H](CCCCN)NC(=O)[C@H](CC(C)C)NC(=O)[C@H](CC(C)C)NC(=O)[C@H](CCCCN)NC(=O)CNC(=O)[C@@H](NC(=O)[C@@H](N)CC(C)C)C(C)C)C(C)C)C(C)C)CSSC[C@@H](C(=O)O)NC1=O; assay = RNA-seq, measured: Ly6c2 mRNA; system = mouse traumatic brain injury, frontal cortex and hippocampus; setting = dose not given; how to read = reference: TBI plus compound vs TBI; measurement = log2 fold change; result = -4.02
SMILES = Oc1c(Cl)cc2c(c1Cl)Oc1cc(Cl)c(Cl)cc1O2; system = whole cow milk; setting = 500 nM nominal; measurement = dose fraction in milk fat; result = 54.5%
SMILES = CCC[C@@](N)(CO)CCc1ccc(OCCCCCC(C)C)cc1; system = hound dogs, male; setting = oral, 5 mg/kg, capsule, fed state, geometric mean; measurement = AUC(0-last); result = 5.16 µM·h
SMILES = C[C@]12C=CC(=O)C=C1C(CSC[C@H](N)C(=O)O)C[C@@H]1[C@@H]2CC[C@]2(C)C(=O)CC[C@@H]12 (some centres unmarked); system = human, postmenopausal women, serum; setting = dose not given; measurement = mean serum concentration; result = 0.027 µM
SMILES = CC(C)NCCCC[C@@H]1NC(=O)[C@H](Cc2ccc(O)cc2)NC(=O)[C@H](Cc2ccccc2)NC(=O)CC[C@H](C(=O)N[C@@H](CCCCNC(C)C)C(=O)N[C@@H](CCCCNC(=O)[C@H](CCC(=O)O)NC(=O)[C@H](CCC(=O)O)NC(=O)[C@H](CCC(=O)O)NC(=O)CN2CCN(CC(=O)O)CCN(CC(=O)O)CC2)C(N)=O)NC(=O)CNC(=O)[C@H](Cc2ccc3ccccc3c2)NC(=O)[C@@H](CCCNC(=N)N)NC1=O [fluorine-18 labelled]; assay = PET; system = mouse, naive, bone; setting = 4.5 min post-injection; measurement = peak SUV; result = 1.18 ± 0.15 g/mL
SMILES = CC(C)CC(=O)OC[C@H]1O[C@@](C#N)(c2ccc3c(N)ncnn23)[C@H](O)[C@@H]1O; system = Rats plasma; setting = 5 µM, 30 min; measurement = remaining compound; result = 0.012%
SMILES = COCCOc1cnc2ccn([C@H](C)c3nnc4c(F)cc(-c5cnn(C)c5)cn34)c(=O)c2c1; system = human patients; setting = oral; measurement = maximum tolerated dose; result = 300 mg once daily
SMILES = O=C(O)CCC(CP(=O)(O)O)C(=O)O (centres unmarked); system = rat, plasma; setting = 4 µg/mL, 28 days, -80 °C, long-term stability; measurement = measured concentration; result = 3.85 ± 0.13 µg/mL
SMILES = COc1ccc([C@@H](O)c2cc(-c3ncnc4cc(N5CCOCC5)ccc34)c(F)cc2Cl)nn1; system = patients, advanced solid tumours; setting = oral, 200 mg twice daily, treatment-emergent, together with: avelumab; measurement = gastrointestinal disorders incidence; result = 10%
SMILES = C[C@@H](NC(=O)N1C(=O)[C@H](Cc2ccnc(N)c2)[C@H]1C(=O)O)C1CCCCC1; system = healthy Chinese adult volunteers; setting = continuous intravenous infusion, dose not given, 5.0 days, all doses pooled; measurement = subjects with albuminuria; result = 15%
SMILES = CC(=O)NCC(=O)NCC(=O)N[C@H](C(=O)N[C@@H](Cc1ccc(O)cc1)C(=O)N[C@@H](CO)C(=O)N[C@H]1CSSC[C@@H](C(=O)N[C@@H](CCCNC(=N)N)C(=O)N2CCC[C@H]2C(=O)N[C@@H](CCC(N)=O)C(=O)N[C@@H](CCCNC(=N)N)C(=O)NCC(=O)NCCC(=O)N[C@@H](CCCCNC(=O)CN(CC(=O)NCCCC[C@H](NC(=O)CCNC(=O)CNC(=O)[C@H](CCCNC(=N)N)NC(=O)[C@H](CCC(N)=O)NC(=O)[C@@H]2CCCN2C(=O)[C@H](CCCNC(=N)N)NC(=O)[C@@H]2CSSC[C@H](NC(=O)[C@H](CO)NC(=O)[C@H](Cc3ccc(O)cc3)NC(=O)[C@@H](NC(=O)CNC(=O)CNC(C)=O)[C@@H](C)O)C(=O)N[C@@H](Cc3c[nH]cn3)C(=O)N[C@@H](Cc3ccccc3)C(=O)NCC(=O)N[C@@H](C)C(=O)N[C@@H](CC(C)C)C(=O)N[C@@H]([C@@H](C)O)C(=O)N[C@@H](Cc3c[nH]c4ccccc34)C(=O)N[C@@H](C(C)C)C(=O)N2)C(N)=O)C(=O)CCN)C(N)=O)NC(=O)[C@H](C(C)C)NC(=O)[C@H](Cc2c[nH]c3ccccc23)NC(=O)[C@H]([C@@H](C)O)NC(=O)[C@H](CC(C)C)NC(=O)[C@H](C)NC(=O)CNC(=O)[C@H](Cc2ccccc2)NC(=O)[C@H](Cc2c[nH]cn2)NC1=O)[C@@H](C)O; assay = MSD immunoassay; system = BALB/c mice, healthy female, serum; setting = subcutaneous, 0.08 mg/kg, 144 h, LLOQ 2.0 ng/mL; measurement = serum concentration; result = not detected

A few entries again:
SMILES = CO[C@H]1C[C@@H]2CC[C@@H](C)[C@@](O)(O2)C(=O)C(=O)N2CCCC[C@H]2C(=O)O[C@H]([C@H](C)C[C@@H]2CC[C@@H](OC(=O)NCCOCCOCCOCCOCCOCCOCCOCCOCCC(=O)N3CCc4cc(Cn5nc(-c6ccc7oc(N)nc7c6)c6c(N)ncnc65)ccc4C3)[C@H](OC)C2)C[C@@H](O)[C@H](C)/C=C(\C)[C@@H](O)[C@@H](OC)C(=O)[C@H](C)C[C@H](C)/C=C/C=C/C=C/1C; system = advanced solid tumour patients; setting = intravenous, dose not given, grade ≥3, all doses; measurement = incidence of TEAE; result = 68.4%
SMILES = CNC(=O)c1c(N(C)N=O)ncn1C; tested on = Salmonella typhimurium; assay = mutagenicity, Ames plate incorporation; system = TA1535; setting = 150 µg/plate, without S9, methanol; measurement = revertant colonies per plate; result = 18.7 ± 7
